Experimental data gathered from unrelated publications.
Every numbered part comes from another study and shows a few of its results, in no order.
UniProt Q13976, sequence (whole entry, looked up): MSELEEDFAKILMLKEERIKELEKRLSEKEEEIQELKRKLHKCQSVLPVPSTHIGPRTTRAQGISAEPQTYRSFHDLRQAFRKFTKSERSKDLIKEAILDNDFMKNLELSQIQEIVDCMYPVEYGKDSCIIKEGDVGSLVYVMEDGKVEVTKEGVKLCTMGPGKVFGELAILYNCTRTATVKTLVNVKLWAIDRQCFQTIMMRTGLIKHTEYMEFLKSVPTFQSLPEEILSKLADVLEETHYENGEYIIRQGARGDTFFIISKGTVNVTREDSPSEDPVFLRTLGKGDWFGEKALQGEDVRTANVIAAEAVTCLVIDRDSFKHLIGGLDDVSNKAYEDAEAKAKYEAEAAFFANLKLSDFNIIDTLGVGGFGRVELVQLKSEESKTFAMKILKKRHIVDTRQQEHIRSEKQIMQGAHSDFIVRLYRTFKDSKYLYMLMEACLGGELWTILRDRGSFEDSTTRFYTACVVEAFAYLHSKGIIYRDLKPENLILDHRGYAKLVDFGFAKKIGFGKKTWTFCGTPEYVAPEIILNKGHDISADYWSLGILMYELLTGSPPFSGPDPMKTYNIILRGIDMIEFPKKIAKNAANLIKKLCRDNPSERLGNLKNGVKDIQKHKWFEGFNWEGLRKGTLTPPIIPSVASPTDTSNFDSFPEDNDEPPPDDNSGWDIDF
UniProt Q96BR1, sequence (whole entry, looked up): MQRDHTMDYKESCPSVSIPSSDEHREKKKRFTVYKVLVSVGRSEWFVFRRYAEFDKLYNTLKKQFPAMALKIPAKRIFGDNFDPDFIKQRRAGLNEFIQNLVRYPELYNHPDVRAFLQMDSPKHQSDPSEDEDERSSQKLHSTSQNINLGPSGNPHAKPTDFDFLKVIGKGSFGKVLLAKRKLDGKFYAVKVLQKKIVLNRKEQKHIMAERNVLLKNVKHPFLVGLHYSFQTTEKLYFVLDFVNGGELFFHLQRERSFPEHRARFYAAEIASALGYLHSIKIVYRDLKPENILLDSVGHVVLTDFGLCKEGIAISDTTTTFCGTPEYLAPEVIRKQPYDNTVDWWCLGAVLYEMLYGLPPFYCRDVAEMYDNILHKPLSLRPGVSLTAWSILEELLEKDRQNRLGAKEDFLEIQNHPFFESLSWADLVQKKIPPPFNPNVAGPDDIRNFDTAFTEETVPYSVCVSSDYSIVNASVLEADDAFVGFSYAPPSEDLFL
UniProt P36507, sequence (whole entry, looked up): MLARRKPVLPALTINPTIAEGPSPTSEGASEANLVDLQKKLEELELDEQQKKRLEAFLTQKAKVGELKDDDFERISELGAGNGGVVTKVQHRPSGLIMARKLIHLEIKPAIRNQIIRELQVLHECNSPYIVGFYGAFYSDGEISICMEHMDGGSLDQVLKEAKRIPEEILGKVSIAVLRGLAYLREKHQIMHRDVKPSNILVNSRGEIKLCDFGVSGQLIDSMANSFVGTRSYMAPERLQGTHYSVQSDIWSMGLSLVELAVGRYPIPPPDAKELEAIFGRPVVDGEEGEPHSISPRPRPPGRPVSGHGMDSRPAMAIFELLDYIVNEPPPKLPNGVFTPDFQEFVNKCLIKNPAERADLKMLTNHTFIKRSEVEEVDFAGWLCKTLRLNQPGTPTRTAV

Block 1 — read-out: cell-free assay; technique: competition with immobilised ligand; tested at: 1 µM; quantity: remaining binding
Structure (SMILES): O=C(O)c1cc(-c2ccc(C3CCNCC3)cc2)c2ccc(-c3ccc(C(F)(F)F)cc3)cc2c1
YES1 (Homo sapiens, UniProt P07947): 100%
MAP2K2 (Homo sapiens, UniProt P36507): 90%
HIPK2 (Homo sapiens, UniProt Q9H2X6): 100%
NEK10 (Homo sapiens, UniProt Q6ZWH5): 100%
EGFR (Homo sapiens, UniProt P00533, L861Q): 100%
EPHA5 (Homo sapiens, UniProt P54756): 97%
KIT (Homo sapiens, UniProt P10721, T670I/V559D): 100%
SGK3 (Homo sapiens, UniProt Q96BR1): 100%
ERBB3 (Homo sapiens, UniProt P21860): 85%
NLK (Homo sapiens, UniProt Q9UBE8): 100%
PIK3C2B (Homo sapiens, UniProt O00750): 100%
CIT (Homo sapiens, UniProt O14578): 100%
PKN1 (Homo sapiens, UniProt Q16512): 100%
EGFR (Homo sapiens, UniProt P00533, del752-759): 100%
CLK4 (Homo sapiens, UniProt Q9HAZ1): 100%
SRMS (Homo sapiens, UniProt Q9H3Y6): 100%
PIK3CD (Homo sapiens, UniProt O00329): 98%
PRKG1 (Homo sapiens, UniProt Q13976): 100%
DCLK3 (Homo sapiens, UniProt Q9C098): 100%

Block 2 — species: mouse; matrix: microsomes or S9; tested at: 2 µM; time: 0.5 h; quantity: remaining compound
Nc1ccc2nn(-c3ccccc3)nc2c1Br: 6.78%
O=C(NCc1cn2ccsc2n1)c1c[nH]c2nccc(Cl)c12: 41.6%
Cc1nc2nc(N3C(=O)CCC3=O)nn2c(C)c1Cl: 61.6%
CC(=O)Nc1ccc(N2N=C(c3ccc(O)cc3)C(C)CC2=O)cc1 (stereo not shown): 55.9%
CN(C(=O)CN(c1ccc(Cl)c(Cl)c1)S(=O)(=O)c1ccccc1)C(CN1CCCC1)c1ccc(-c2cccnc2)cc1 (stereo not shown): 3.63%
CC(=O)N1CCc2[nH]cnc2C12CCN(C(=O)C(F)c1ccccc1)CC2 (stereo not shown): 79.7%
O=c1c2ccccc2[se]n1-c1ccc(S(=O)(=O)Nc2ccccn2)cc1: 31.2%
CC(=O)c1c(O)c(-c2ccc(Cl)cc2)c[nH]c1=O: 48.2%

Block 3 — read-out: enzyme activity; mode: inhibitor; tested at: 77 µM; quantity: remaining activity
Target: DNA polymerase theta, ATPase domain (POLQ, Homo sapiens, UniProt O75417)
UniProt O75417, sequence (whole entry, unmodified, looked up): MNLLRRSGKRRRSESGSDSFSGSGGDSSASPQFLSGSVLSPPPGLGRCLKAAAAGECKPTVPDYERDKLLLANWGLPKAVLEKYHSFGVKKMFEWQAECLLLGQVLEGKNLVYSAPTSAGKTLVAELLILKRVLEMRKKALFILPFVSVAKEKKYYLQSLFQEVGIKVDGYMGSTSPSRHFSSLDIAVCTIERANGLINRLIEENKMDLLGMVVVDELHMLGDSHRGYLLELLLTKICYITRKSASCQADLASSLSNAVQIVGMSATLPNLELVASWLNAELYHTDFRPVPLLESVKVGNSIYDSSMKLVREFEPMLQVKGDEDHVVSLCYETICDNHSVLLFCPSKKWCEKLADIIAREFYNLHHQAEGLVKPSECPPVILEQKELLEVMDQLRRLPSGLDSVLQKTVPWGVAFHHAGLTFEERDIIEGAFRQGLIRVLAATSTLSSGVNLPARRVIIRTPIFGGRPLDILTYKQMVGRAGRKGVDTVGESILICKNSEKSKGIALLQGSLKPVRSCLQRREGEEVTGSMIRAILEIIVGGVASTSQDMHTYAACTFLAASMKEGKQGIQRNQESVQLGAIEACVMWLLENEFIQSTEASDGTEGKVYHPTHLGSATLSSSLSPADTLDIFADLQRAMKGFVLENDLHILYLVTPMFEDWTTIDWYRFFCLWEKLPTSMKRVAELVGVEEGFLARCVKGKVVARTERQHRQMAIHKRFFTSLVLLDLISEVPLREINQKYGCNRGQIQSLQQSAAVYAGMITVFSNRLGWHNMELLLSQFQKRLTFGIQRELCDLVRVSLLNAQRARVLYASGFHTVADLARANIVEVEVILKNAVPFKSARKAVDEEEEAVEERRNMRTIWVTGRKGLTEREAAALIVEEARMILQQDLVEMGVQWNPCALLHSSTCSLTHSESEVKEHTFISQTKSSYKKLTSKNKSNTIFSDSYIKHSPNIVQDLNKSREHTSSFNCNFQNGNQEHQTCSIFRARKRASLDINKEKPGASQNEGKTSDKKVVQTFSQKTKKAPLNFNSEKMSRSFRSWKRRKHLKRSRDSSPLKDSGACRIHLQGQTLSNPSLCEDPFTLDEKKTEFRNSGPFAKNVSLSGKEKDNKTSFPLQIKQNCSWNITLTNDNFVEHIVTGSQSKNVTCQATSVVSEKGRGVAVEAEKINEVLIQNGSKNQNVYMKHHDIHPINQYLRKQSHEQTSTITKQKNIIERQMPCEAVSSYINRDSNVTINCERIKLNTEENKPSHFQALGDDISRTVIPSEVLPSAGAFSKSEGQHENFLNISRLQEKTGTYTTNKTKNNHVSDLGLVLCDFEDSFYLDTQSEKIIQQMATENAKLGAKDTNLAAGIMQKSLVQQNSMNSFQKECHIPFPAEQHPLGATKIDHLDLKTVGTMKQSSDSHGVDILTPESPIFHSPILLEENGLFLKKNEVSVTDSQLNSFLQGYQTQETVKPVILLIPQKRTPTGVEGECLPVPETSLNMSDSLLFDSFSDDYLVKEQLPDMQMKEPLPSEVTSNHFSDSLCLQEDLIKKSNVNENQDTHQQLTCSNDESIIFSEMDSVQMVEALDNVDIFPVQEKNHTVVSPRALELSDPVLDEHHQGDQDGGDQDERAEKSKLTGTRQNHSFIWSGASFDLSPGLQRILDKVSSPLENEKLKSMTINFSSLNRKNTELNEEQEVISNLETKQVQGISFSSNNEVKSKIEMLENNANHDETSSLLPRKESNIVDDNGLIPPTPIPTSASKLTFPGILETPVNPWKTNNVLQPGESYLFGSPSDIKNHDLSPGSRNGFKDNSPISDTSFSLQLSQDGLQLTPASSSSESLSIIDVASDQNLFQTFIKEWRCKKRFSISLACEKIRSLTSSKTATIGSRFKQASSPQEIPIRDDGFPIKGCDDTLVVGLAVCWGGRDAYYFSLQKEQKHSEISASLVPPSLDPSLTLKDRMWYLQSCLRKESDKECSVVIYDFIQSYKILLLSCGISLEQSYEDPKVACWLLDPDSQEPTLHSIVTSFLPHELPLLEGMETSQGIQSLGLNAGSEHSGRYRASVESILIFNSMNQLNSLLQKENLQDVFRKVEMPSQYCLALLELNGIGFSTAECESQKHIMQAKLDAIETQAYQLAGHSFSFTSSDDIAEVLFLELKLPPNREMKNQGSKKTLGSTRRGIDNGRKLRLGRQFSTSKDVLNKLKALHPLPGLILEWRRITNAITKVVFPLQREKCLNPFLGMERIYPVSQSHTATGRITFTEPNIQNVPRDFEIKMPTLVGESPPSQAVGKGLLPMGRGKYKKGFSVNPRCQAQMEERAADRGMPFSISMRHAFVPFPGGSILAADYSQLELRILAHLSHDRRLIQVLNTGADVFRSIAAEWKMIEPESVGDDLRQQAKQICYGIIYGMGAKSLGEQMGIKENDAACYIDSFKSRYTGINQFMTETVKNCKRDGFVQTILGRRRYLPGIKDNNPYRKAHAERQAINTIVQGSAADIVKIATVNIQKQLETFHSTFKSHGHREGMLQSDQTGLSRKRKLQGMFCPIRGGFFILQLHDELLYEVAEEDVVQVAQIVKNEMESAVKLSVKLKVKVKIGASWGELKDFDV
CCn1nc(C(=O)O)c(=O)c2cc3c(cc21)OCO3: 99%
CC(=O)[C@H]1CC[C@H]2[C@@H]3CC=C4C[C@@H](OS(=O)(=O)O)CC[C@]4(C)[C@H]3CC[C@]12C: 86.6%
COc1ccc2c(c1)CC[C@@H]1[C@@H]2CC[C@]2(C)[C@@H](NCCCCCCN3C(=O)CCC3=O)CC[C@@H]12: 110%
CC(C)NC[C@@H](O)COc1ccc(CC(N)=O)cc1: 93.6%

Block 4 — read-out: enzyme activity; mode: inhibitor; tested at: 0.5 µM; relative to: control; quantity: remaining activity
Target: Macrophage colony-stimulating factor 1 receptor (CSF1R, Homo sapiens, UniProt P07333)
UniProt P07333, sequence (whole entry, looked up): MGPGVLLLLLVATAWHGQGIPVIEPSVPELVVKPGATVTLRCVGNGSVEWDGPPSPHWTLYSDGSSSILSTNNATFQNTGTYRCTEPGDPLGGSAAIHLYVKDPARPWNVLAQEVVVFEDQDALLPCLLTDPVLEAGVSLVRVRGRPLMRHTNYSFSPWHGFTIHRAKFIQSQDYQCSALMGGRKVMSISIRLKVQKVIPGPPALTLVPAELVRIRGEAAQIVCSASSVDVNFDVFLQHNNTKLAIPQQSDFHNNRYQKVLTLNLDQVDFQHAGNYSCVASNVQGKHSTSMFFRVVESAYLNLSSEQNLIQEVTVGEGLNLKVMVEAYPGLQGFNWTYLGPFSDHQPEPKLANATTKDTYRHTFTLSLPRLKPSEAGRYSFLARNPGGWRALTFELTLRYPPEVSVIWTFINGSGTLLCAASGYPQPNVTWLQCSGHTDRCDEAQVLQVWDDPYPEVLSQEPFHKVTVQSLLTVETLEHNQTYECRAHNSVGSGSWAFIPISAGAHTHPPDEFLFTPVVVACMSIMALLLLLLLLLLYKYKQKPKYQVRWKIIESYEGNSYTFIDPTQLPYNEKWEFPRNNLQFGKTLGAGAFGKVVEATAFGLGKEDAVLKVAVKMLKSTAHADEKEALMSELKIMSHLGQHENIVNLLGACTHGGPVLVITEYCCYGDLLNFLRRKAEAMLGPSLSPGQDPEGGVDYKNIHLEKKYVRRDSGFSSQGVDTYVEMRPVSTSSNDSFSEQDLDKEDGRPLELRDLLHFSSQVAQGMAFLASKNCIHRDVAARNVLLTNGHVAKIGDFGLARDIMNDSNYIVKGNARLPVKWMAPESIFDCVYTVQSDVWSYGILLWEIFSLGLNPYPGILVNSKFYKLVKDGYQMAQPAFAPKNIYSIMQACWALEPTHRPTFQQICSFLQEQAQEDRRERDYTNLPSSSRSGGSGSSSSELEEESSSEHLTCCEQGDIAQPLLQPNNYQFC
O=C1NC(=O)/C(=C/c2ccc3c(c2)OC(F)(F)O3)S1: 106%
NC(=O)c1cccc(-c2cc(Nc3ccc(OC(F)(F)F)cc3)ncn2)c1: 94.1%
Nc1nc(Nc2ccc(S(N)(=O)=O)cc2)nn1C(=S)Nc1c(F)cccc1F: 10.6%
FC(F)(F)c1ccc(/C=C/c2nc(COc3ccc(CCCCn4ccnn4)cc3)co2)cc1: 103%
CC(C)(C)c1nc2c3cc[nH]c(=O)c3c3cc(F)ccc3c2[nH]1: 93%
CCCCc1c(-c2ccc(O)cc2)[nH]c2nccnc12: 38.4%
CCN(CC)CCCCN1c2ccccc2Oc2ccc(Cl)cc21: 97.8%
O=C(O)/C=C/c1cc(Br)c(Br)c(Br)c1Br: 99%
c1cc(-c2cnn3cc(-c4ccc(OCCN5CCCCC5)cc4)cnc23)ccn1: 19.8%
